# Published values pooled from the literature.
# Organism: Klebsiella pneumoniae
SMILES,test,system,conditions,MIC
CC1(C)C(NC(=O)C(=NOC2(C(=O)O)CCC2)c2csc(N)n2)C(=O)N1OS(=O)(=O)O (stereo not drawn),agar dilution,"16-14, ESBL-producing",,0.125 µg/mL
CC[C@H]1OC(=O)[C@H](C)[C@@H](OC(=O)Cc2ccc(N)cc2)[C@H](C)[C@@H](O[C@@H]2O[C@H](C)C[C@H](N(C)C)[C@H]2O)[C@](C)(OC)C[C@@H](C)C(=O)[C@H](C)[C@@H](O)[C@]1(C)O,microbial growth,ATCC700603,,> 32 µg/mL
CC[C@H](C)[C@@H]1NC(=O)[C@@H](CC(C)C)NC(=O)[C@H](CCN)NC(=O)[C@@H](NC(=O)[C@@H](CO)NC(=O)[C@@H](NC(=O)[C@H](CCN)NC(=O)c2ccc(-c3ccccc3)cc2)[C@@H](C)O)CCNC(=O)[C@H](CC(C)C)NC(=O)[C@H](CCN)NC(=O)[C@H](CCN)NC1=O,broth microdilution,"ATCC 13883, colistin-susceptible",,2 to 4 µg/mL
CC1(C)C(NC(=O)C(=NOCC(=O)N2CC3CCCC3C2C(=O)O)c2csc(N)n2)C(=O)N1OS(=O)(=O)O (stereo not drawn),agar dilution,"16-14, ESBL-producing",,2 µg/mL
CC(C)C[C@@H]1NC(=O)[C@@H](CC(C)C)NC(=O)[C@H](CCN)NC(=O)[C@@H](NC(=O)[C@H](CCN)NC(=O)[C@@H](NC(=O)CN=[N+]=[N-])[C@@H](C)O)CCNC(=O)[C@H]([C@@H](C)O)NC(=O)[C@H](CCN)NC(=O)[C@H](CCN)NC1=O,broth microdilution,"ATCC 27736, cation-adjusted Mueller-Hinton broth","18 to 20 h, 37 °C, 0.002% polysorbate 80",32 µg/mL
C#CCNC(=O)C1(O/N=C(\C(=O)N[C@@H]2C(=O)N(OS(=O)(=O)O)C2(C)C)c2csc(N)n2)CC1,agar dilution,16-14 ESBL,,4 µg/mL
CC(=O)NC[C@H]1CN(c2ccc(N3CCN(C(=O)CN)CC3)c(F)c2)C(=O)O1,broth dilution,ATCC 27736,,inactive
COC(=O)CNC(=O)c1ccc(NC(=O)c2[nH]c(C)c(Cl)c2Cl)c(N2CCN(C(=O)OC(C)(C)C)CC2)c1,"microbial growth, broth dilution",ATCC700603,,> 32 µg/mL
CN[C@H](CC(C)C)C(=O)N[C@H]1C(=O)N[C@@H](CC(N)=O)C(=O)N[C@H]2C(=O)N[C@H]3C(=O)N[C@H](C(=O)N[C@H](C(=O)O)c4cc(O)cc(O)c4-c4cc3ccc4O)[C@H](O)c3ccc(c(Cl)c3)Oc3cc2cc(c3O[C@@H]2O[C@H](CO)[C@@H](O)[C@H](O)[C@H]2O[C@H]2C[C@](C)(NCc3ccc(OCc4cn(CCCCC(=O)N[C@H](C(=O)N[C@@H](CCN)C(=O)N[C@H]5CCNC(=O)[C@H]([C@@H](C)O)NC(=O)[C@H](CCN)NC(=O)[C@H](CCN)NC(=O)[C@H](CC(C)C)NC(=O)[C@@H](CC(C)C)NC(=O)[C@H](CCN)NC5=O)[C@@H](C)O)nn4)c(OC)c3)[C@H](O)[C@H](C)O2)Oc2ccc(cc2Cl)[C@H]1O,broth microdilution,"ATCC 27736, cation-adjusted Mueller-Hinton broth","18 to 20 h, 37 °C, 0.002% polysorbate 80",16 µg/mL
COc1c(NC(=O)c2ccc(NC(=O)[C@H](Cc3c[nH]nn3)NC(=O)c3ccc(NC(=O)/C(C)=C/c4ccc(O)cc4)cc3)cc2)ccc(C(=O)Nc2ccc(C(=O)O)cc2)c1O,broth microdilution,ciprofloxacin-sensitive,,32 µg/mL
CCCCCC[N+](C)(C)CCCCCCOc1cc(OCCCCCC[N+](C)(C)CCCCCC)cc(OCCCCCC[N+](C)(C)CCCCCC)c1.[Br-].[Br-].[Br-],,ATCC 4352,,16 µM
CC1(C)[C@H](NC(=O)/C(=N\OCCN)c2csc(N)n2)C(=O)N1OS(=O)(=O)O,agar dilution,"ATCC 700603, ESBL-producing",,> 64 µg/mL
CCCCCCCCCCCC[N+](C)(C)CCCCCCCCCCOc1cc(OCCCCCCCCCC[N+](C)(C)CCCCCCCCCCCC)cc(OCCCCCCCCCC[N+](C)(C)CCCCCCCCCCCC)c1.[Br-].[Br-].[Br-],,ATCC 4352,,250 µM
C#CCOc1ccc(CN[C@@]2(C)C[C@H](O[C@H]3[C@H](Oc4c5cc6cc4Oc4ccc(cc4Cl)[C@@H](O)[C@@H](NC(=O)[C@@H](CC(C)C)NC)C(=O)N[C@@H](CC(N)=O)C(=O)N[C@H]6C(=O)N[C@H]4C(=O)N[C@H](C(=O)N[C@H](C(=O)N[C@@H](CCCNC(=N)N)C(N)=O)c6cc(O)cc(O)c6-c6cc4ccc6O)[C@H](O)c4ccc(c(Cl)c4)O5)O[C@H](CO)[C@@H](O)[C@@H]3O)O[C@@H](C)[C@H]2O)cc1OC,broth microdilution,"ATCC 27736, cation-adjusted Mueller-Hinton broth","18 to 20 h, 37 °C, 0.002% polysorbate 80",128 µg/mL
CC(C)(O/N=C(\C(=O)N[C@@H]1C(=O)N(OS(=O)(=O)O)C1(C)C)c1nsc(N)n1)C(=O)O,agar dilution,"ATCC 700603, ESBL-producing",,> 64 µg/mL
CCCCCCCCn1cc[n+](CCCCCCOc2cc(OCCCCCC[n+]3ccn(CCCCCCCC)c3)cc(OCCCCCC[n+]3ccn(CCCCCCCC)c3)c2)c1.[Br-].[Br-].[Br-],,ATCC 4352,,1 µM
CC[C@H](C)[C@H](NC(=O)[C@@H](CCCNC(=N)N)NC(=O)[C@H](CCCNC(=N)N)NC(=O)[C@@H]1CCCN1C(=O)[C@@H]1CCCN1C(=O)[C@H](CCCNC(=N)N)NC(=O)[C@@H]1CCCN1C(=O)[C@H](CCCNC(=N)N)NC(=O)[C@@H]1CCCN1C(=O)[C@H](CC(C)C)NC(=O)[C@H](Cc1ccc(O)cc1)NC(=O)[C@@H]1CCCN1C(=O)[C@@H]1CCCN1C(=O)[C@H](CCCNC(=N)N)NC(=O)[C@H](CC(=O)O)NC(=O)[C@@H](N)C(C)C)C(=O)N[C@@H](Cc1ccc(O)cc1)C(=O)N[C@@H](CC(N)=O)C(=O)N[C@H](CCCNC(=N)N)C(N)=O,broth microdilution,DSM 681,"18 h, 37 °C, 25% MHB2",8 µg/mL
CC[C@H]1OC(=O)[C@H](C)[C@@H](OC(=O)c2ccc(N)cc2)[C@H](C)[C@@H](O[C@@H]2O[C@H](C)C[C@H](N(C)C)[C@H]2O)[C@](C)(OC)C[C@@H](C)C(=O)[C@H](C)[C@@H](O)[C@]1(C)O,microbial growth,ATCC700603,,> 32 µg/mL
CC1(C)[C@H](NC(=O)/C(=N\OC2(C(=O)O)CC2)c2nsc(N)n2)C(=O)N1OS(=O)(=O)O,agar dilution,"ATCC 700603, ESBL-producing",,64 µg/mL
CC[C@H]1OC(=O)[C@H](C)[C@@H](OC(=O)Cc2cccc3ccccc23)[C@H](C)[C@@H](O[C@@H]2O[C@H](C)C[C@H](N(C)C)[C@H]2O)[C@](C)(OC)C[C@@H](C)C(=O)[C@H](C)[C@@H](O)[C@]1(C)O,microbial growth,ATCC700603,,> 32 µg/mL
CCCCCCn1cc[n+](CCCCCCCCOc2cc(OCCCCCCCC[n+]3ccn(CCCCCC)c3)cc(OCCCCCCCC[n+]3ccn(CCCCCC)c3)c2)c1.[Br-].[Br-].[Br-],,ATCC 4352,,1 µM
CC1(C)[C@H](NC(=O)/C(=N\OCC(=O)N2CCC(C(=O)O)CC2)c2csc(N)n2)C(=O)N1OS(=O)(=O)O,agar dilution,"ATCC 700603, ESBL-producing",,> 64 µg/mL
CC(C)C[C@@H]1NC(=O)[C@@H](CC(C)C)NC(=O)[C@H](CCN)NC(=O)[C@@H](NC(=O)[C@H](CCN)NC(=O)[C@@H](N)[C@@H](C)O)CCNC(=O)[C@H]([C@@H](C)O)NC(=O)[C@H](CCN)NC(=O)[C@H](CCN)NC1=O,broth microdilution,"ATCC 27736, cation-adjusted Mueller-Hinton broth","18 to 20 h, 37 °C, 0.002% polysorbate 80",> 128 µg/mL
CCCCCCCCCCn1cc[n+](CCCCCCOc2cc(OCCCCCC[n+]3ccn(CCCCCCCCCC)c3)cc(OCCCCCC[n+]3ccn(CCCCCCCCCC)c3)c2)c1.[Br-].[Br-].[Br-],,ATCC 4352,,4 µM
CN[C@H](CC(C)C)C(=O)N[C@H]1C(=O)N[C@@H](CC(N)=O)C(=O)N[C@H]2C(=O)N[C@H]3C(=O)N[C@H](C(=O)N[C@H](C(=O)NCc4cn(CCCCC(=O)N[C@H](C(=O)N[C@@H](CCN)C(=O)N[C@H]5CCNC(=O)[C@H]([C@@H](C)O)NC(=O)[C@H](CCN)NC(=O)[C@H](CCN)NC(=O)[C@H](CC(C)C)NC(=O)[C@@H](CC(C)C)NC(=O)[C@H](CCN)NC5=O)[C@@H](C)O)nn4)c4cc(O)cc(O)c4-c4cc3ccc4O)[C@H](O)c3ccc(c(Cl)c3)Oc3cc2cc(c3O[C@@H]2O[C@H](CO)[C@@H](O)[C@H](O)[C@H]2O[C@H]2C[C@](C)(N)[C@H](O)[C@H](C)O2)Oc2ccc(cc2Cl)[C@H]1O,broth microdilution,"ATCC 13883, cation-adjusted Mueller-Hinton broth","18 to 20 h, 37 °C, 0.002% polysorbate 80",32 µg/mL
CCCCCCCCCCn1cc[n+](CCCCCCCCOc2cc(OCCCCCCCC[n+]3ccn(CCCCCCCCCC)c3)cc(OCCCCCCCC[n+]3ccn(CCCCCCCCCC)c3)c2)c1.[Br-].[Br-].[Br-],,ATCC 4352,,125 µM
CC1(C)[C@H](NC(=O)/C(=N\OCC(=O)N2CCC(C(=O)O)C2)c2nsc(N)n2)C(=O)N1OS(=O)(=O)O (stereo partly drawn),agar dilution,"16-14, ESBL-producing",,> 64 µg/mL
